Results collected from several papers.
Compare with care: the assays were run in different laboratories. Several values in a cell are separate wells, animals, samples, runs or records.
Target: Serine/threonine-protein kinase tousled-like 1 (TLK1, Homo sapiens, UniProt Q9UKI8)

Structure (SMILES) | assay | system | conditions | how to read | endpoint | value
Cc1ccc(-c2c(/C=C(\C#N)C(=O)NC(C)C)n(CCCO)c3ncnc(N)c23)cc1 | cell-free assay, competition with immobilised ligand |  | 1 µM |  | remaining binding | 97%
CN1CCN(Cc2ccc(-c3ccc(CO[C@H]4CCC[C@@H]4NC(=O)c4cc(-c5cnn(C)c5)cnc4N)cc3)cc2)CC1 | enzyme activity, inhibitor |  | 0.1 µM |  | inhibition | 0%
COc1c(Cl)cccc1Nc1c(-c2ccncc2C#C[C@@]2(C)CCCN2C(=O)/C=C/CN(C)C)[nH]c2c1C(=O)NCC2 | cell-free assay, competition with immobilised ligand |  | 3 µM |  | remaining binding | 59%
COc1cc(Nc2nc(C)cc(-c3cnn4nc(OC)ccc34)n2)cc(C(F)(F)F)c1 | binding, competition with immobilised ligand |  | 1 µM |  | remaining binding | 100%
Cc1ccc(C(=O)Nc2ccc(CN3CCN(C)CC3)c(C(F)(F)F)c2)cc1C#Cc1cnc2cccnn12 | target engagement, NanoBRET | human cells |  |  | Hill slope | 0.0581
CCN1CCN(Cc2ccc(NC(=O)c3ccc(C)c(NC(=O)c4cncc(-c5cnn(C)c5)c4)c3)cc2C(F)(F)F)CC1 | binding, competition with immobilised ligand |  | 1 µM |  | remaining binding | 82%
CS(=O)(=O)Nc1cccc(-c2csc3cnc(Nc4ccc(N5CCN(CCCCCOc6cccc7c6C(=O)N(C6CCC(=O)NC6=O)C7=O)CC5)cc4)nc23)c1 (stereo not shown) | probe labelling, inhibitor, KiNativ chemoproteomics | MOLT-4 | 1 µM |  | inhibition | 18.1%
N[C@H]1CC[C@H](Nc2nccc(-c3cccnc3Oc3ccc(NC(=O)NC4CC4)c4ccccc34)n2)CC1 | kinobead competition pulldown | HEK293/HCT116 lysate mixture | 10 µM, 1 h, 4 °C | lower = stronger competition | log2 LFQ intensity | 18.9 and 21.1 and 18.4 and 19.7
Nc1ncc(-c2cc(-c3cnn(CC(F)(F)F)c3)ncc2F)nc1C(=O)NC1CNCC(F)C1 (stereo not shown) | enzyme activity |  | 1 µM | relative to: DMSO control | remaining activity | 93.5%
CCn1cc(C(=O)O)c(=O)c2c(N)c(F)c(NC3CCCCC3)cc21 | kinase activity |  | 0.1 µM, with: ATP at Km |  | inhibition | -9.7%
CNC(=O)C[C@H](Cc1ccc(C#N)cc1)NC(=O)c1cc(-c2ccc(CN[C@H](C)c3ccc(C)cc3)o2)ccc1Cl | enzyme activity, inhibitor |  | 1 µM |  | activity vs control | 95%
Cc1cnc2nc1Nc1cccc(c1)COC/C=C/COCc1cc(ccc1OCCN1CCOCC1)N2 | binding, competition with immobilised ligand |  | 0.1 µM |  | remaining binding | 98%
NC(=O)[C@@H](O)C[C@H]1CCc2sc3ncnc(O[C@H]4CC[C@H](N5CCOCC5)CC4)c3c21 | enzyme activity, inhibitor |  | 10 µM |  | inhibition | 0%

Repeated from above:
Structure (SMILES) | assay | system | conditions | how to read | endpoint | value
CCn1cc(C(=O)O)c(=O)c2c(N)c(F)c(NC3CCCCC3)cc21 | kinase activity |  | 0.1 µM, with: ATP at Km |  | inhibition | -9.7%
CNC(=O)C[C@H](Cc1ccc(C#N)cc1)NC(=O)c1cc(-c2ccc(CN[C@H](C)c3ccc(C)cc3)o2)ccc1Cl | enzyme activity, inhibitor |  | 1 µM |  | activity vs control | 95%
